Published values pooled from the literature.
Lines come from different studies, so protocols differ. ± marks the error that the study gave.
CD27: CD27 antigen (CD27, Homo sapiens, UniProt P26842)
RPA1 N-terminal domain: Replication protein A 70 kDa DNA-binding subunit, N-terminal domain (RPA1, Homo sapiens, UniProt P27694)
CD28: CD28 (Homo sapiens, UniProt P10747)
Hepatitis A virus cellular receptor 2: Hepatitis A virus cellular receptor 2 (Homo sapiens, UniProt Q8TDQ0)
EPHA2: Ephrin type-A receptor 2 (EPHA2, Homo sapiens, UniProt P29317)
BTLA: B- and T-lymphocyte attenuator (BTLA, Homo sapiens, UniProt Q7Z6A9)

Chains of the proteins cited; added tags and fusions are not shown. Lines headed by an entry give the natural chain unless they say otherwise; changes in a name come on top. A line that says so, or that is headed by a name, gives the form on record, which may keep a tag or linker. Residues count along the entry.
UniProt P26842, whole entry, looked up: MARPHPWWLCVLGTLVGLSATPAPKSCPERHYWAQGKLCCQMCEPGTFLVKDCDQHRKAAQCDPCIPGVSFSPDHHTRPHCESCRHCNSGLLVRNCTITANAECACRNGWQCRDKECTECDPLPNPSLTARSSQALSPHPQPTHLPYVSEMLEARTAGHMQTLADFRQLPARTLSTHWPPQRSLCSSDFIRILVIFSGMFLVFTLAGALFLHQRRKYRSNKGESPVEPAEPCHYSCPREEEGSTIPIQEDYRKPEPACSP
UniProt P10747, whole entry, looked up: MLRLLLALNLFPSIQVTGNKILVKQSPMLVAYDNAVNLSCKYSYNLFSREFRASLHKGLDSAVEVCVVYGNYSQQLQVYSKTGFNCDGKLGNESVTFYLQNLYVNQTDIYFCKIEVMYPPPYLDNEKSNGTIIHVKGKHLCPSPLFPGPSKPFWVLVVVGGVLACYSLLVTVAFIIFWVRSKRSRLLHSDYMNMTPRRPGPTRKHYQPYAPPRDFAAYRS
UniProt Q8TDQ0, whole entry, looked up: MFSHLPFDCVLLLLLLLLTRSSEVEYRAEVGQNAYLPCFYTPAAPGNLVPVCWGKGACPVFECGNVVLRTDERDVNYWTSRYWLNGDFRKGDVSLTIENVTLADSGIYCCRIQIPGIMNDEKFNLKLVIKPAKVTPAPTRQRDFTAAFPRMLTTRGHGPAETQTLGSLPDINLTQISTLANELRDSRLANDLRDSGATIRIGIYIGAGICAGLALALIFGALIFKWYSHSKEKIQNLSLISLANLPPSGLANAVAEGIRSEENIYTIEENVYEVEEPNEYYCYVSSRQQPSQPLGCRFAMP
UniProt P29317, 596-900 limits assumed: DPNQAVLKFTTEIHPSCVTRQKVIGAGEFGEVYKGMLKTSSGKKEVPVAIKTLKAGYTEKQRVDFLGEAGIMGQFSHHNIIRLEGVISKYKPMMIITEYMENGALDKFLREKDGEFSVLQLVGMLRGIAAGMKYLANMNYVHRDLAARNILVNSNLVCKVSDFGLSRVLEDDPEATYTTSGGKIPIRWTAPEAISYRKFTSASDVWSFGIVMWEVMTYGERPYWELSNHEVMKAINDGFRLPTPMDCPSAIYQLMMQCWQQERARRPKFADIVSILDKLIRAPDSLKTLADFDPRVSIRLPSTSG
UniProt Q8VIJ5, whole entry: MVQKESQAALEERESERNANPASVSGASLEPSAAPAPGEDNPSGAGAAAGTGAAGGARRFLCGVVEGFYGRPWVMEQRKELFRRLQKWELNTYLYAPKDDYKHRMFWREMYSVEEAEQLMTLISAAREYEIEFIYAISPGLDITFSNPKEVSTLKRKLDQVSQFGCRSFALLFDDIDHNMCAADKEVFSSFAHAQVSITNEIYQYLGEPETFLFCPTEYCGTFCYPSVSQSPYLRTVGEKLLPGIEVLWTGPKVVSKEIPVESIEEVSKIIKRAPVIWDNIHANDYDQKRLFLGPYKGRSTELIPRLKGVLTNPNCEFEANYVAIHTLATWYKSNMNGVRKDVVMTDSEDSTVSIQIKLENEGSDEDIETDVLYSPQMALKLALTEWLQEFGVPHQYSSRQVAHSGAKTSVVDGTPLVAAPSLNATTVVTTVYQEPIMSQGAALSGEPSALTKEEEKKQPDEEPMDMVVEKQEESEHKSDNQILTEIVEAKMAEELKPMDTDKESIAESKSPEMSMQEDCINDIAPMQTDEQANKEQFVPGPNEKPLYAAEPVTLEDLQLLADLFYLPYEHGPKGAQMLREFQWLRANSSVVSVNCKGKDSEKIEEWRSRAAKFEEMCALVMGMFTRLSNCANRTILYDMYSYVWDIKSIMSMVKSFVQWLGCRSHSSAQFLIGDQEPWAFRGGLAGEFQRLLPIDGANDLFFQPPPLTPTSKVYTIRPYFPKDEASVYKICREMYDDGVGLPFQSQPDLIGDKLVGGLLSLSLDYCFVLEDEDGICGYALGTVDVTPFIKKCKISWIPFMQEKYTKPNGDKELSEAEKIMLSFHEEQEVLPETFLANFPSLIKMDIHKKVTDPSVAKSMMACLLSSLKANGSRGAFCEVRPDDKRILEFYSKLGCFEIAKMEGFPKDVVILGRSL
UniProt P29375, 1-588 with tags or gaps DEL88-347 limits assumed: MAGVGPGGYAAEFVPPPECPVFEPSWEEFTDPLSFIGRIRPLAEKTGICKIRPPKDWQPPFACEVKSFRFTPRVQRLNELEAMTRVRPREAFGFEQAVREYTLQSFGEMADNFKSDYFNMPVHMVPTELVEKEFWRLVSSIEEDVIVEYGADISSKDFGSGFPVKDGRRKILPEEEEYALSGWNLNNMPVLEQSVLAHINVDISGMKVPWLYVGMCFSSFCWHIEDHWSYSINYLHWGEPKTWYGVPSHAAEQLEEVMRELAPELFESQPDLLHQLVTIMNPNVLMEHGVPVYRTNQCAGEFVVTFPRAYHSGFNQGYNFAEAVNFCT
UniProt Q9UBN7, whole entry, looked up: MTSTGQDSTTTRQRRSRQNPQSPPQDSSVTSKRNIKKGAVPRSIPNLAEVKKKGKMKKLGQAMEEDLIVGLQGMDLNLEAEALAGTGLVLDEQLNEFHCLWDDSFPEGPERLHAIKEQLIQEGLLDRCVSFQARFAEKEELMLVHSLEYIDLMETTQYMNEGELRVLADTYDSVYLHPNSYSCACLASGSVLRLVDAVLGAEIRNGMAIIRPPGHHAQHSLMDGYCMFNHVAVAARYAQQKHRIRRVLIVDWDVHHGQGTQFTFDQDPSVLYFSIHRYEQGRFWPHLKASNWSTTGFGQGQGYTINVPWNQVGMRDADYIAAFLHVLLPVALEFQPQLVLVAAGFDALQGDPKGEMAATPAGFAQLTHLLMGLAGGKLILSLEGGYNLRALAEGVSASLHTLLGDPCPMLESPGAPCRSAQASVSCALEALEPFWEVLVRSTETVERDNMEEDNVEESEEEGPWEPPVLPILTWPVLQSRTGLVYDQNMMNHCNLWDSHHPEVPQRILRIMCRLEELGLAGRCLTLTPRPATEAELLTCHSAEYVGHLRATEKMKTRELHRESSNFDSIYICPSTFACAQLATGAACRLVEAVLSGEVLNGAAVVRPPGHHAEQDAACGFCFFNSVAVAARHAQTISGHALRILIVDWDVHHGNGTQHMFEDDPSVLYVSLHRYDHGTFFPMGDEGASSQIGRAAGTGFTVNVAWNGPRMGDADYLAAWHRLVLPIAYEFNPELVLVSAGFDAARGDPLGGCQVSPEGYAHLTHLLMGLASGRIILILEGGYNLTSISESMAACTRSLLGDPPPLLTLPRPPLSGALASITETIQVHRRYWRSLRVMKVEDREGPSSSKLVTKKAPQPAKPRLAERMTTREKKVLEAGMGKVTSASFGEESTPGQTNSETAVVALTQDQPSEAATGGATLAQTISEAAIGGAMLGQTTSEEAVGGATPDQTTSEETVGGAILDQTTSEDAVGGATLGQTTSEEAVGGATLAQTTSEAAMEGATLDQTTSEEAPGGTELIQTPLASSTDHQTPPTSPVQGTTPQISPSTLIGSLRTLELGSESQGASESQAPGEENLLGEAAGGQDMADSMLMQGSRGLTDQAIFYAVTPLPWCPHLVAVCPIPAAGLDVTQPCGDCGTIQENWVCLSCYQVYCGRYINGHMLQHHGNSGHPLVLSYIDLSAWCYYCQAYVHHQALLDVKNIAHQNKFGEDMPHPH
UniProt Q09472, 1049-1156 limits assumed: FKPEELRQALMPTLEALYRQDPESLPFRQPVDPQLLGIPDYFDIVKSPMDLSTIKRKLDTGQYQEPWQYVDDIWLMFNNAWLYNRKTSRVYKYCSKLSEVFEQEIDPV
UniProt Q15109, whole entry, looked up: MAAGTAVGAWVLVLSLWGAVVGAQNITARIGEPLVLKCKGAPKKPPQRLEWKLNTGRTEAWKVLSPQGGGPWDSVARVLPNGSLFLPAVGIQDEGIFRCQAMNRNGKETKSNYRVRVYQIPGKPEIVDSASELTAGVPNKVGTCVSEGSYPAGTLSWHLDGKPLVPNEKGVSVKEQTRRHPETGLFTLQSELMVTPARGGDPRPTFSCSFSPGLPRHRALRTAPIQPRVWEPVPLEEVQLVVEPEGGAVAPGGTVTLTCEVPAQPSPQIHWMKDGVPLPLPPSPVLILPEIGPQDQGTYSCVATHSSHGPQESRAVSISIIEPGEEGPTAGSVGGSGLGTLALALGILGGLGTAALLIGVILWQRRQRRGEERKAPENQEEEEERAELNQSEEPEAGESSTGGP
UniProt Q9UBZ9, 1158-1251 limits assumed: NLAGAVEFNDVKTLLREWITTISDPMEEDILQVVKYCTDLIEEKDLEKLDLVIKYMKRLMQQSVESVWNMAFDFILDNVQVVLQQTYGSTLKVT
UniProt Q86U86, whole entry Q216E, looked up: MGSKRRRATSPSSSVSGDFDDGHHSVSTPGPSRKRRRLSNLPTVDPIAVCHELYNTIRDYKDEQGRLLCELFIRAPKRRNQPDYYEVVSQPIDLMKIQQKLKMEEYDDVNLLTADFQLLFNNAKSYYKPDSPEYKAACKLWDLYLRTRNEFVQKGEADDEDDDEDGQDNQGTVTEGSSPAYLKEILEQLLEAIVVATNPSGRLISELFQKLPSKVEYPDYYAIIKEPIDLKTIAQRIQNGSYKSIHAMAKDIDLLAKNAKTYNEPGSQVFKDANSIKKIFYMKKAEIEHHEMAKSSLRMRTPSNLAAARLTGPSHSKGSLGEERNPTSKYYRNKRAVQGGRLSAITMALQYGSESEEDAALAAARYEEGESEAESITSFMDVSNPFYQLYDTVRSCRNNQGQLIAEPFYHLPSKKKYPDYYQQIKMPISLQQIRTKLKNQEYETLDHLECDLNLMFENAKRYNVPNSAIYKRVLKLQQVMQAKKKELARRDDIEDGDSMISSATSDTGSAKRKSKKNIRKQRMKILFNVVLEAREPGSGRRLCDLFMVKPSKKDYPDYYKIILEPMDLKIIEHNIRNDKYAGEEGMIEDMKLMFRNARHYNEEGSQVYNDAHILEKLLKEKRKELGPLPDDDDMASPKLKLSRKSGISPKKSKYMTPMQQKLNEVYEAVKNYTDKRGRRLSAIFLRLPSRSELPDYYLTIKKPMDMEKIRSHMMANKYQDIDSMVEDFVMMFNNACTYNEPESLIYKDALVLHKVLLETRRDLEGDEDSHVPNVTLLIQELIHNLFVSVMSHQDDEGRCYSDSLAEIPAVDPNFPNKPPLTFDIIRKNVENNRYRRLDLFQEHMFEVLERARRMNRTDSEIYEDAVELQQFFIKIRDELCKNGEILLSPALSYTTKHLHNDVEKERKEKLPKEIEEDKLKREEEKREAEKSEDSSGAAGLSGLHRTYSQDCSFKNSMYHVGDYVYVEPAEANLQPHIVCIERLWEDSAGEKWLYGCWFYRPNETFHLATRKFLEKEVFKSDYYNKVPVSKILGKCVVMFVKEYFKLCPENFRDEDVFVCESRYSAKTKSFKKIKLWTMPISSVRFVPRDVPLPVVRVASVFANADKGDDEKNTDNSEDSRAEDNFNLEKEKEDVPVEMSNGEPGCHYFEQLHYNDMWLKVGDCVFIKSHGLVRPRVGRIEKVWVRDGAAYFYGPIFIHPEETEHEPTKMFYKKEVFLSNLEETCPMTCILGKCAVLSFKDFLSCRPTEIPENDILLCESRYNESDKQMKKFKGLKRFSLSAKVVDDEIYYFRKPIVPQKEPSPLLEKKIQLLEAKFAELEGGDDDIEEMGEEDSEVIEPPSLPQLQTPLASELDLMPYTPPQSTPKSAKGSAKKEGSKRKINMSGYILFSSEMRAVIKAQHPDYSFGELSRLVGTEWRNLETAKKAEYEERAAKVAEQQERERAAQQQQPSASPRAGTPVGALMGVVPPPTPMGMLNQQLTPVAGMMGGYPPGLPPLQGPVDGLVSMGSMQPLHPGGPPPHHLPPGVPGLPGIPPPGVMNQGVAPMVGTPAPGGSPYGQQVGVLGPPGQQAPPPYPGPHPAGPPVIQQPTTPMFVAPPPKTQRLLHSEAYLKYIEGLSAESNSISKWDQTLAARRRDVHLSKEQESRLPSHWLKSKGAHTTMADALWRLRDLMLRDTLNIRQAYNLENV
UniProt O15151, 23-111 limits assumed: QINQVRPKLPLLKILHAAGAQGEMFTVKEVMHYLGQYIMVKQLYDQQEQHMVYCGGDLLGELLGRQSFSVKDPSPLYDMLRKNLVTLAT
UniProt P49336, whole entry: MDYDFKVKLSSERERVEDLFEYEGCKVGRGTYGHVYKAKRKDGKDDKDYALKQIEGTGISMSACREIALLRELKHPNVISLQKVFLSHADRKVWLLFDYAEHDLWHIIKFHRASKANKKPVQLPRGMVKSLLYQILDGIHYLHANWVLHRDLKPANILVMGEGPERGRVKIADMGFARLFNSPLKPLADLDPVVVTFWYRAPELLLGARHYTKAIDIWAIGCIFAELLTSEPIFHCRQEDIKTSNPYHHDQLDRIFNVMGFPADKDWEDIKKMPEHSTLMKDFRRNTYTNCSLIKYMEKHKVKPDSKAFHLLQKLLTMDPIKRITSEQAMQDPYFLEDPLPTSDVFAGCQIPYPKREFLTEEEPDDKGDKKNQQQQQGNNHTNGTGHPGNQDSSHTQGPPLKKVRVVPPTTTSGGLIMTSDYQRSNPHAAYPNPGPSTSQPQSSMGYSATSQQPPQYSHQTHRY

SMILES = CC(=O)Nc1ncc(CN2CC[C@H](Oc3cccc(F)n3)C[C@@H]2C)s1 [isotope labelled]; target = Protein O-GlcNAcase (Rattus norvegicus, UniProt Q8VIJ5); test = saturation binding; system = rat cortex homogenate; conditions = radiolabelled compound; Kd = 3.6 ± 0.8 nM
SMILES = CCOCCCN(C(=O)Cn1nnc2ccccc21)C(C(=O)NC(C)(C)CC)c1cccc(OC)c1 (stereo not shown); target = CD27; test = binding, microscale thermophoresis; Kd = 6920 nM
SMILES = Cc1[nH]c2c(C#N)cnn2c(=O)c1C(C)C; target = Lysine-specific demethylase 5A (KDM5A, Homo sapiens, UniProt P29375, del88-347); test = binding, isothermal titration calorimetry; Kd = 25 to 50 nM
SMILES = Cc1ccc(C(=O)Nc2cccc(C)c2C(=O)O)cc1S(=O)(=O)Nc1ccc(Br)cc1; target = RPA1 N-terminal domain; test = binding, fluorescence polarisation competition; conditions = added: FITC-ATRIP probe; Kd = 73000 ± 500 nM
SMILES = CCOc1ccccc1Nc1nnc(SCC(=O)Nc2cc(F)ccc2F)s1; target = CD28; test = binding, microscale thermophoresis; Kd = 6500 ± 2800 nM
SMILES = Nc1ncnc2c1c(-c1ccc(C(=O)Nc3cc(OC(F)(F)F)ccn3)cc1)nn2[C@@H]1CCCN(C(=O)C2CC2)C1; target = Tyrosine-protein kinase BTK, non-phosphorylated (BTK, Homo sapiens, UniProt Q06187); test = TR-FRET binding kinetics; conditions = 37 °C, unphosphorylated enzyme; Kd = 1 ± 0.07 nM
SMILES = Cc1cc(NC(=O)c2ccc(C)c(S(=O)(=O)Nc3ccc(Cl)c(Cl)c3)c2)c(C(=O)O)cc1C; target = RPA1 N-terminal domain; test = binding, fluorescence polarisation competition; conditions = added: FITC-ATRIP probe; Kd = 62000 ± 3500 nM
SMILES = Cc1ccc(NC(=O)NC(=O)COC(=O)c2ccc(O)cc2O)c(C)c1; target = Hepatitis A virus cellular receptor 2; test = microscale thermophoresis; Kd = 430 nM
SMILES = O[C@@H]1[C@H](O)[C@@H]2C[C@@H]2[C@H]1n1cnc2c(NCc3cccc([125I])c3)nc(Cl)nc21; target = Adenosine receptor A3 (Oryctolagus cuniculus, UniProt O02667); test = binding, saturation binding; system = HEK293 cell membranes; conditions = 2 h, room temperature; Kd = 2.53 ± 0.11 nM
SMILES = O=C(CCCCCCC(=O)Nc1ccc(-c2c3ccc(=O)cc-3oc3cc(O)ccc23)c(C(=O)O)c1)NO; target = Protein deacetylase HDAC6 (HDAC6, Homo sapiens, UniProt Q9UBN7); test = binding, fluorescence anisotropy; conditions = high affinity site; Kd = 200 ± 100 nM
SMILES = Cc1noc(C)c1-c1ccc2nc(-c3cnn(CC(C)(C)O)c3)nc(N3CCOC[C@@H]3c3ccccc3)c2c1 (single isomer, unassigned); target = Histone acetyltransferase p300 (EP300, Homo sapiens, UniProt Q09472); test = BROMOscan competition binding; Kd = 190 nM
SMILES = COc1cc(NC(=O)c2ccc(C)c(Nc3nc(-c4cccnc4)nc4c3cnn4C)c2)cc(OC)c1; target = EPHA2; test = binding, microscale thermophoresis; system = kinase domain; conditions = 25 °C, 5% DMSO; Kd = 3 nM
SMILES = Cc1ccc(NS(=O)(=O)c2cc(C(=O)Nc3ccccc3C(=O)O)ccc2C)cc1C; target = RPA1 N-terminal domain; test = binding, fluorescence polarisation competition; conditions = added: FITC-ATRIP probe; Kd = 150000 ± 11000 nM
SMILES = CC(=NNC(=O)CC12CC3CC(CC(C3)C1)C2)c1cc2c(cc1NC(=O)CCCC(=O)O)OCO2; target = Hepatitis A virus cellular receptor 2; test = microscale thermophoresis; Kd = 1420 nM
SMILES = CC(C)CN(CC(=O)N(CC(=O)N(CC(=O)N(CC(=O)N(CC(=O)N(CC(=O)N(CC(N)=O)Cc1ccccc1)Cc1ccccc1)CC(C)C)Cc1ccccc1)Cc1ccccc1)CC(C)C)C(=O)CNCCCCN; target = Advanced glycosylation end product-specific receptor, extracellular domain (AGER, Homo sapiens, UniProt Q15109); Kd = 58 ± 12 nM
SMILES = CC(C)c1ccc(C(=O)Nc2ccccc2C(=O)O)cc1S(=O)(=O)Nc1ccc(Cl)c(Cl)c1; target = RPA1 N-terminal domain; test = binding, fluorescence polarisation competition; conditions = added: FITC-ATRIP probe; Kd = 5000 nM
SMILES = CC(CC(=O)OCc1ccc(-n2cccn2)cc1)c1ccncc1 (stereo not shown); target = CD28; test = microscale thermophoresis; conditions = 2% DMSO; Kd = 50300 ± 13100 nM
SMILES = CC(=O)N[C@H]1[C@@H](O[C@H](C)[C@H](N)C(=O)O)O[C@H](CO)[C@H](O)[C@@H]1O; target = CLEC10A, carbohydrate recognition domain (Homo sapiens, UniProt Q8IUN9); test = binding, ITC; conditions = 293 K; Kd = 3000 nM
SMILES = Cc1cc(NC(=O)c2ccc(C)c(S(=O)(=O)Nc3ccc(Br)cc3)c2)c(C(=O)O)cc1C; target = RPA1 N-terminal domain; test = binding, fluorescence polarisation competition; conditions = added: FITC-ATRIP probe; Kd = > 250000 nM
SMILES = O=C(O)c1cc(Nc2nnc(-c3ccccc3)c(=O)[nH]2)ccc1O; target = BTLA; test = binding, microscale thermophoresis; Kd = 3210 nM
SMILES = NS(=O)(=O)c1ccc(Cc2c(-c3cccc(-c4ccccc4)c3)nn(-c3nc(C(=O)O)cs3)c2C2CC2)c(F)c1; target = L-lactate dehydrogenase A chain (LDHA, Homo sapiens, UniProt P00338); test = binding, SPR; conditions = added: NADH; Kd = 0.79 nM
SMILES = COc1ccc(N2CC(=O)C(c3nc(C)cs3)=C2N)c(OC)c1; target = His-SUMO-tagged ancestral FSP1; test = surface plasmon resonance; Kd = 199 nM
SMILES = Cc1ccc(NS(=O)(=O)c2cc(C(=O)Nc3ccccc3C(=O)O)ccc2C)cc1; target = RPA1 N-terminal domain; test = binding, fluorescence polarisation competition; conditions = added: FITC-ATRIP probe; Kd = 196000 nM
SMILES = Cc1ccc(N=Nc2ccc(N)cc2N)cc1C; target = DNA repair protein REV1, C-terminal domain (Homo sapiens, UniProt Q9UBZ9); test = microscale thermophoresis; conditions = cis-trans isomer mixture, added: labelled DNA repair protein REV1 20 nM; Kd = 3900 ± 200 nM
SMILES = Cc1ccc(C(=O)Nc2cccc(Cl)c2)cc1Nc1nc(-c2cccnc2)nc2c1cnn2C; target = EPHA2; test = binding, microscale thermophoresis; system = kinase domain; conditions = 25 °C, 5% DMSO; Kd = 3 nM
SMILES = CCN(CC)CCn1c(=S)[nH]c2cc(C(=O)NCCc3ccc(S(N)(=O)=O)cc3)ccc2c1=O; target = CD27; test = binding, microscale thermophoresis; Kd = 11400 nM
SMILES = Cc1cccc(C2NC(=O)c3c(Cl)cccc3N2)c1 (racemic); target = Protein polybromo-1, BD2 (PBRM1, Homo sapiens, UniProt Q86U86, Q216E); test = ITC; conditions = negative control mutant; Kd = 3600 ± 400 nM
SMILES = COc1ccc2c(c1OC)C(=O)OC2c1c(O)n[nH]c1-c1ccccc1 (stereo not shown); target = V-type immunoglobulin domain-containing suppressor of T-cell activation (VSIR, Homo sapiens, UniProt Q9H7M9); test = microscale thermophoresis; Kd = 3250 nM
SMILES = C=CCNC1=C2C[C@@H](C)C[C@H](OC)[C@H](O)[C@@H](C)C3OC3(C)[C@H](OC(N)=O)[C@@H](OC)/C=C\C=C(/C)C(=O)NC(=CC1=O)C2=O (stereo partly shown); target = Endoplasmin (HSP90B1, Homo sapiens, UniProt P14625); test = binding, fluorescence polarization; conditions = 24 h, 4 °C, added: FITC-geldanamycin; Kd = 1130 ± 20 nM
SMILES = Cc1ccc(NC(=O)c2ccc(C)c(S(=O)(=O)Nc3cccc(Cl)c3)c2)c(C(=O)O)c1; target = RPA1 N-terminal domain; test = binding, fluorescence polarisation competition; conditions = added: FITC-ATRIP probe; Kd = 30000 ± 1000 nM
SMILES = CC(C)Oc1cc(C#N)ccc1C1=N[C@@H](c2cccc(Cl)c2)[C@@H](c2ccc(Cl)cc2)N1C(=O)N1CCNC(=O)C1; target = Protein Mdm4 (MDM4, Homo sapiens, UniProt O15151); test = NMR HSQC titration; conditions = pH 6.5, 298 K, global fit; Kd = 800 ± 700 nM
SMILES = O=c1c2c(-c3ccccc3)csc2ncn1N=Cc1ccc(O)c([N+](=O)[O-])c1; target = BTLA; test = binding, microscale thermophoresis; Kd = 9020 nM
SMILES = Cc1ccc(NC(=O)c2ccc(C)c(S(=O)(=O)Nc3ccc(Br)cc3)c2)c(C(=O)O)c1; target = RPA1 N-terminal domain; test = binding, fluorescence polarisation competition; conditions = added: FITC-ATRIP probe; Kd = 33000 ± 2000 nM
SMILES = CCc1ccc(NC(=O)Nc2nnc(Sc3nc4c(c(=O)n(C)c(=O)n4C)n3C)s2)cc1; target = Cyclin-dependent kinase 8, with cyclin C (CDK8, Homo sapiens, UniProt P49336); test = binding, reporter displacement; Kd = 42.5 nM

A few entries again:
SMILES = Cc1ccc(NS(=O)(=O)c2cc(C(=O)Nc3ccccc3C(=O)O)ccc2C)cc1; target = RPA1 N-terminal domain; test = binding, fluorescence polarisation competition; conditions = added: FITC-ATRIP probe; Kd = 196000 nM
SMILES = CC(=O)Nc1ncc(CN2CC[C@H](Oc3cccc(F)n3)C[C@@H]2C)s1 [isotope labelled]; target = Protein O-GlcNAcase (Rattus norvegicus, UniProt Q8VIJ5); test = saturation binding; system = rat cortex homogenate; conditions = radiolabelled compound; Kd = 3.6 ± 0.8 nM
SMILES = C=CCNC1=C2C[C@@H](C)C[C@H](OC)[C@H](O)[C@@H](C)C3OC3(C)[C@H](OC(N)=O)[C@@H](OC)/C=C\C=C(/C)C(=O)NC(=CC1=O)C2=O (stereo partly shown); target = Endoplasmin (HSP90B1, Homo sapiens, UniProt P14625); test = binding, fluorescence polarization; conditions = 24 h, 4 °C, added: FITC-geldanamycin; Kd = 1130 ± 20 nM
SMILES = CCOCCCN(C(=O)Cn1nnc2ccccc21)C(C(=O)NC(C)(C)CC)c1cccc(OC)c1 (stereo not shown); target = CD27; test = binding, microscale thermophoresis; Kd = 6920 nM
